Assay results of several laboratories.
Lines come from different studies, so protocols differ. ± gives the spread as reported.

With `CC[C@]1(O)C[C@@H]2CN(CCc3c([nH]c4ccccc34)[C@@](C(=O)OC)(c3cc4c(cc3OC)N(C)[C@H]3[C@@](O)(C(=O)OC)[C@H](OC(C)=O)[C@]5(CC)C=CCN6CC[C@]43[C@@H]65)C2)C1` the fold resistance was 13.6 (KB-C2 (P-gp overexpressing); cell growth; reference: IC50 in KB-C2 over KB-3-1).
`Oc1nc(-c2ccc(C(F)(F)F)cc2)nc2c1CSCC2`: IC50 “inactive” (HD-MB03; 168 h).
For `CCC(=O)O[C@@H](O[P@](=O)(CCCCc1ccccc1)CC(=O)N1C[C@H](C2CCCCC2)C[C@H]1C(=O)[O-])C(C)C.[Na+]`, the inhibition was 96.8% (Nedd8-cullin1 interaction; neddylation, AlphaScreen; 100 µM).
The EC50 of `CCn1cc(-c2cc(Cn3ccnc3)cc3c2CCN([C@H](c2cc(OC)ccn2)C2CC2)C3=O)c(C(F)(F)F)n1` is reported as 16.9 µM (NCI-H2030; cell growth, inhibitor; 120 h).
With `CC1=C(Cn2ccnc2[N+](=O)[O-])C(=O)c2ccccc2C1=O` the killing was 56.9% (Schistosoma mansoni; adult worms; 25 µM, 48 h).
`C=C[C@@]1(C)CC(=O)[C@]2(O)[C@@]3(C)[C@@H](O)CCC(C)(C)[C@@H]3[C@H](O)[C@H](OC(C)=O)[C@@]2(C)O1` — result for PGD2 generation: “inhibited” (human cord blood-derived mast cells; 0.1 µM, added: LTD4).
With `CCn1cc(-c2cc(Cn3ccoc3=N)cc3c2CCN([C@@H](C)c2cc(OC)ccn2)C3=O)c(C(F)(F)F)n1` the EC50 was 1.09 µM (Calu-6; cell growth, inhibitor; 120 h).
Under “reversal of trafficking deficit”, `CC[N+](C)(CC)CCOC(=O)C(O)(c1ccccc1)C1CCCCC1` (stereo not shown) is recorded as -8.78% (primary rat hippocampal/cortical neuron-glia cultures; 1 µM, added: 1 µM α-synuclein oligomers).
`O=C(NOC[C@H](O)CO)c1ccc(F)c(F)c1Nc1ccc(I)cc1F` has a viability of 20.1% (A-375; 0.07813 µM, 72 h).
`Cc1nc(C)c(C)nc1C.Cl` has an inhibition of -70.2% (Nedd8-cullin1 interaction; neddylation, AlphaScreen; 100 µM).
The TGI of `[Cl-].[Cl-].[Os+2].c1cnc2c(c1)ccc1cccnc12.c1cnc2c(c1)ccc1cccnc12.c1cnc2c(c1)ccc1cccnc12` is reported as 277 µM (SK-MEL-28; cell growth, SRB; dark, normoxia).
Under “log2 fold change”, `Cn1cc(-c2ccc(-c3cncc(Cl)c3N3CCC4(CCNC4=O)CC3)cc2)cn1` is recorded as 2.46 (COLO 205; gene expression, microarray, measured: TNFRSF12A (FN14) mRNA; concentration not given, 2 h; reference: untreated cells).
For `Nc1nc(N)c2nc(CNc3ccc(C(=O)c4ccccc4)cc3)cnc2n1`, the mitochondrial toxicity was 9.52 ± 10.3% (786-O; high-content imaging, measured: MitoTracker Red uptake; 10 µM).
`O=c1[nH]nc(OCCCc2ccc(Cl)cc2)c(NCc2cccnc2)c1Br`: “log2 fold change” -0.375 (HEK293T; RNA-seq, measured: HSPB1 mRNA; 10 µM, 6 h; reference: vehicle).
`CSc1cc(Oc2ccnc3[nH]c(=O)cnc23)ccc1NC(=O)Nc1cc(C(C)(C)C)nn1-c1ccccc1` — result for “phospho-Src family Tyr416/total ratio”: 0.24 (patient-derived cell lines, mean of three; RPPA; 1 µM, 4 h; reference: DMSO).
For `O=C1[C@H](Cc2ccc(O)cc2)N2C(=O)CCN(C(=O)NCc3ccccc3)[C@H]2CN1Cc1cccc2ccccc12`, “fold change in IC50” read 0.482 (HD-MB03; concentration not given, added: ribociclib NG; reference: ribociclib over DMSO).
`c1ccc2[nH]ccc2c1`: “mRNA level, LS mean” 192 counts per million (HCT-8; RNA-seq, measured: DDIT4; concentration not given).
Under PARylation, `NC(=O)c1cccc2c1O/C(=C\c1ccc(C(=O)NCCc3nc4ccccc4[nH]3)s1)C2=O` is recorded as “inhibited” (SUM149; cellular PARylation, inhibitor, Western blot; added: H2O2).
For `COc1cnc2cccc(N3CCc4c(cc(Cn5ccnc5C)cc4-c4cn(C)nc4C(F)(F)F)C3=O)c2c1`, the EC50 was 1.97 µM (AU565; cell growth, inhibitor; 120 h).
Under “mean neuron degeneration”, `C=CC(=O)N1[C@@H](c2ccc3c(c2)OCO3)c2[nH]c3ccccc3c2C[C@H]1C(=O)NC` is recorded as 77.9% (rat DRG neurons; 0.3704 µM, 48 h, added: vincristine 40 nM).
With `O=C(/C=C/C=C/C=C/C1CCCCC1)NC1=C[C@@](O)(/C=C/C=C/C=C/C(=O)NC2=C(O)CCC2=O)[C@@H]2O[C@@H]2C1=O` the GI50 was 29.1 µM (NCI-H2122; cell growth, CellTiter-Glo; 78 h).
For `CCCCN1C[C@H](O)[C@@H](O)[C@@H](O)[C@H]1CO`, the IC50 was 14.7 µM (sample H patient fibroblasts; Gb3 level lowering, LC-MS/MS, measured: Gb3 d18:1/24:0; 216 h).
With `CC1=C(Cn2cc(CO)nn2)C(=O)c2ccccc2C1=O` the selectivity index was 6.4 (Schistosoma mansoni; NTS; reference: L6 CC50 over IC50).
For `Nc1nc2[nH]cc(CCc3ccc(C(=O)N[C@@H](CCC(=O)O)C(=O)O)cc3)c2c(=O)[nH]1`, the IC50 was 0.142 µM (HD-MB03; cell growth; 168 h, DMSO).
`Cc1cc(Nc2ncc(Cl)c(Nc3ccccc3S(=O)(=O)C(C)C)n2)c(OC(C)C)cc1C1CCNCC1`: “log2 fold change” -1.71 (CLB-GE; phosphoproteomics LC-MS/MS, measured: STAM2 phosphorylation; 200 nM, 60 min; reference: untreated).

A few entries again:
`c1ccc2[nH]ccc2c1`: “mRNA level, LS mean” 192 counts per million (HCT-8; RNA-seq, measured: DDIT4; concentration not given).
Under PARylation, `NC(=O)c1cccc2c1O/C(=C\c1ccc(C(=O)NCCc3nc4ccccc4[nH]3)s1)C2=O` is recorded as “inhibited” (SUM149; cellular PARylation, inhibitor, Western blot; added: H2O2).
